Results of several laboratories.
Parts stem from different laboratories: compare values within a part only. Values joined by “and” are separate records of one study, mostly repeats; a detail may differ.
UniProt P29323, sequence (whole entry, looked up): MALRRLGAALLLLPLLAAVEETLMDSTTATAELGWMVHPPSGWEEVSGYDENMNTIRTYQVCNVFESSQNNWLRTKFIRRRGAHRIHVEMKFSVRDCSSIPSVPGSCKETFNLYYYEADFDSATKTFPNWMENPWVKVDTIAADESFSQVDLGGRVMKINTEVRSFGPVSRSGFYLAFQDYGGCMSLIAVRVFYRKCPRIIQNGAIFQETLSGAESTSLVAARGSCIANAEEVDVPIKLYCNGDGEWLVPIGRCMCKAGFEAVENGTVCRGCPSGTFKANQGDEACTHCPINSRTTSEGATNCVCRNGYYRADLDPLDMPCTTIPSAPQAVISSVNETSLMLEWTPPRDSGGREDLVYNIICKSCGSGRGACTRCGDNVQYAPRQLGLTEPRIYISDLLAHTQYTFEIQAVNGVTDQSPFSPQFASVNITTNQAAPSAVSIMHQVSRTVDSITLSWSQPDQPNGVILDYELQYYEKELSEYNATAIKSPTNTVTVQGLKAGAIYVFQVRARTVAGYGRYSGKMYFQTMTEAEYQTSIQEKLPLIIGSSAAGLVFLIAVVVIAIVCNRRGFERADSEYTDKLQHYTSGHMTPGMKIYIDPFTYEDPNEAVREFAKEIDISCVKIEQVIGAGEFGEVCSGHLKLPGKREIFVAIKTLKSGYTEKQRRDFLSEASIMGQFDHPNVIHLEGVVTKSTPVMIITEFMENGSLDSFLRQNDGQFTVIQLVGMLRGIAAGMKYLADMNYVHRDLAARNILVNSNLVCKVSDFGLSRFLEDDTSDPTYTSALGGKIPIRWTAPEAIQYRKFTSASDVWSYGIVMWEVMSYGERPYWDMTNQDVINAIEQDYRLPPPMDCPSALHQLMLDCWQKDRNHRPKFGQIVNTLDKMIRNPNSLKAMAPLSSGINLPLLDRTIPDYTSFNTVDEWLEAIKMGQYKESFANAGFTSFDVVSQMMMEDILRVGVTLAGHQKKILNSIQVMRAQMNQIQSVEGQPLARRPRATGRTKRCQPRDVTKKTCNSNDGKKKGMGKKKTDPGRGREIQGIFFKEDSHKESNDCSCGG
UniProt P45983, sequence (whole entry, looked up): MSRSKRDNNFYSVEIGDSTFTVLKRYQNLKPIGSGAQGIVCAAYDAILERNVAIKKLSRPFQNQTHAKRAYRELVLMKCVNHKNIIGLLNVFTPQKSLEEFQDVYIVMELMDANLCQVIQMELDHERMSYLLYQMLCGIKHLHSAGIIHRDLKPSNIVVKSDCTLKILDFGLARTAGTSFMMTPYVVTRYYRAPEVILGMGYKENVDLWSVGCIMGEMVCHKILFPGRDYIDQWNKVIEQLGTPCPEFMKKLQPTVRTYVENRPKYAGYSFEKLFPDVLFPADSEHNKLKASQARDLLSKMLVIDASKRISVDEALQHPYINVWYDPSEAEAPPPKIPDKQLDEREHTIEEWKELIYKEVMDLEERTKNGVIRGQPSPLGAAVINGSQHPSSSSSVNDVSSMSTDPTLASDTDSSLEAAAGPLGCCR
UniProt O14757, sequence (whole entry, looked up): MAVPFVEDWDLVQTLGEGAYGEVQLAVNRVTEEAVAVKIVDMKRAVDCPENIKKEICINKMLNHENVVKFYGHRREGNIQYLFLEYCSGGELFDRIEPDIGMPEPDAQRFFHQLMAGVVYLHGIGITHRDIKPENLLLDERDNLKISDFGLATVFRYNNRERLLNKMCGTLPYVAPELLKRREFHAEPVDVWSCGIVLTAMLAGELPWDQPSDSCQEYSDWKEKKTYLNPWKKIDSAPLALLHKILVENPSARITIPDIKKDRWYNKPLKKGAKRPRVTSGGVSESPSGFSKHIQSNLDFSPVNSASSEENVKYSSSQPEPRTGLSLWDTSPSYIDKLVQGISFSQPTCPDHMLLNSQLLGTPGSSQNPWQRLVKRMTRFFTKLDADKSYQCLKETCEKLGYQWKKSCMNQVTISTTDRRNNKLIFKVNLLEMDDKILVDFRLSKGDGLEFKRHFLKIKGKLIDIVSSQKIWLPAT
UniProt Q13188, sequence (whole entry, looked up): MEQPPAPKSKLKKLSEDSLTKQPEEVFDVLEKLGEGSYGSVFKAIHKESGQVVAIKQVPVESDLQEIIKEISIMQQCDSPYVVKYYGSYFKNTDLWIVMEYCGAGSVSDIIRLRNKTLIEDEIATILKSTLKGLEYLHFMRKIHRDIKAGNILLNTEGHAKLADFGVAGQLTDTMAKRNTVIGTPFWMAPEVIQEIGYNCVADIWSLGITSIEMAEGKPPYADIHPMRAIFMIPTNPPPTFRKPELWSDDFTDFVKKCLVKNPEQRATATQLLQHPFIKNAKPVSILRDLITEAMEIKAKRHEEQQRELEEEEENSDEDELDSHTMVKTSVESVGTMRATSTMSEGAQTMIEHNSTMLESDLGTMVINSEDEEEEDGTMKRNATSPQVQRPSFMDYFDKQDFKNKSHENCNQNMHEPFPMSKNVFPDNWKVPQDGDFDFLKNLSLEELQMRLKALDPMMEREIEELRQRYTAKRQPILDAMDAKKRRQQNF
UniProt P11802, sequence (whole entry, looked up): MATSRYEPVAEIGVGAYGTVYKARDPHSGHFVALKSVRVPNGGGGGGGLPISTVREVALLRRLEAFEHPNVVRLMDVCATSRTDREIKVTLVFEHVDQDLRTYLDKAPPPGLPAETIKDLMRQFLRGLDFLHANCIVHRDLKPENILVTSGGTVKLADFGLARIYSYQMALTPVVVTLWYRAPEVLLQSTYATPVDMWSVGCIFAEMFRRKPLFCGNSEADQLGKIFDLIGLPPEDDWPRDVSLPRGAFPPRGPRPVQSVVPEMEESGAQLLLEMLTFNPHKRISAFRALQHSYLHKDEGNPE

Sample 1
SMILES: CCN1/C(=C/C=C2\CCCC(/C=C/C3=[N+](CC)c4ccccc4C3(C)C)=C2NCCCCCCCCN2CCC(Nc3nc4ccccc4n3Cc3ccc(F)cc3)CC2)C(C)(C)c2ccccc21
Cell line: U-87 MG
Concentration: concentration not given
Relative to: DMSO
Endpoint: log2 fold change
item: GEMIN6 mRNA: -1.01
item: GPR37L1 mRNA: 5.77
item: TUBA4A mRNA: -1.94
item: NLRC5 mRNA: -2.49
item: IL24 mRNA: 2.94
item: MAPK10 mRNA: -1.59
item: PLCL2 mRNA: -0.93
item: BANP mRNA: 0.907
item: IL17RC mRNA: -0.941
item: ZBTB40 mRNA: 0.901
item: ZNF3 mRNA: 0.882

Sample 2
Structure (SMILES): CC[C@@]1(c2ccccc2)C2=C(CC(C)(C)CC2=O)Nc2n[nH]cc21
Concentration: 1 µM
Endpoint: remaining binding
MAPK3 (Homo sapiens, UniProt P27361); binding, competition with immobilised ligand: 100%
ERBB2 (Homo sapiens, UniProt P04626); binding, competition with immobilised ligand: 91%
Tyrosine-protein kinase ABL1, non-phosphorylated (ABL1, Homo sapiens, UniProt P00519, T315I); kinase binding, KINOMEscan; relative to: DMSO control: 100%
SRMS (Homo sapiens, UniProt Q9H3Y6); binding, competition with immobilised ligand: 100%
FLT3 (Homo sapiens, UniProt P36888, D835V); binding, competition with immobilised ligand: 100%
STK3 (Homo sapiens, UniProt Q13188); binding, competition with immobilised ligand: 100%
CDK11A (Homo sapiens, UniProt Q9UQ88); kinase binding, KINOMEscan; relative to: DMSO control: 100%
BRAF (Homo sapiens, UniProt P15056); kinase binding, KINOMEscan; relative to: DMSO control: 100%
ROS1 (Homo sapiens, UniProt P08922); kinase binding, KINOMEscan; relative to: DMSO control: 100%
Tyrosine-protein kinase ABL1, non-phosphorylated (ABL1, Homo sapiens, UniProt P00519, H396P); kinase binding, KINOMEscan; relative to: DMSO control: 75%
Receptor-type tyrosine-protein kinase FLT3, autoinhibited (FLT3, Homo sapiens, UniProt P36888); binding, competition with immobilised ligand: 100%
MAPK14 (Homo sapiens, UniProt Q16539); kinase binding, KINOMEscan; relative to: DMSO control: 100%
DCLK2 (Homo sapiens, UniProt Q8N568); kinase binding, KINOMEscan; relative to: DMSO control: 100%
PIK3CA (Homo sapiens, UniProt P42336); kinase binding, KINOMEscan; relative to: DMSO control: 100%
MAPK4 (Homo sapiens, UniProt P31152); binding, competition with immobilised ligand: 100%
Cyclin-dependent kinase 4, with cyclin D1 (CDK4, Homo sapiens, UniProt P11802); binding, competition with immobilised ligand: 86%
MAP3K13 (Homo sapiens, UniProt O43283); kinase binding, KINOMEscan; relative to: DMSO control: 100%
TAOK1 (Homo sapiens, UniProt Q7L7X3); binding, competition with immobilised ligand: 100%
HASPIN (Homo sapiens, UniProt Q8TF76); kinase binding, KINOMEscan; relative to: DMSO control: 68%
EGFR (Homo sapiens, UniProt P00533, del746-750); binding, competition with immobilised ligand: 97%
EGFR (Homo sapiens, UniProt P00533, L858R); kinase binding, KINOMEscan; relative to: DMSO control: 100%
TYRO3 (Homo sapiens, UniProt Q06418); binding, competition with immobilised ligand: 100%
MAP3K5 (Homo sapiens, UniProt Q99683); binding, competition with immobilised ligand: 100%

Sample 3
Compound: CN(C1COC1)C(C)(C)/C=C(\C#N)C(=O)N1CCC[C@H]1Cn1nc(-c2ccc(Oc3ccccc3)cc2F)c2c(N)ncnc21
Read-out: kinase activity
Endpoint: inhibition
CHEK1 (Homo sapiens, UniProt O14757); 0.1 µM: 0%
MAPK8 (Homo sapiens, UniProt P45983); 1 µM: -10%
PIK3CD (Homo sapiens, UniProt O00329); 0.1 µM: 2%
JAK2 (Homo sapiens, UniProt O60674); 0.1 µM: -6%
TBK1 (Homo sapiens, UniProt Q9UHD2); 1 µM: 0%
EPHB2 (Homo sapiens, UniProt P29323); 0.1 µM: 13%
MAP2K2 (Homo sapiens, UniProt P36507); 0.1 µM: 2%
PAK3 (Homo sapiens, UniProt O75914); 1 µM: -4%
PRKCG (Homo sapiens, UniProt P05129); 1 µM: 0%
PAK6 (Homo sapiens, UniProt Q9NQU5); 0.1 µM: 6%
PLK3 (Homo sapiens, UniProt Q9H4B4); 1 µM: 13%
MELK (Homo sapiens, UniProt Q14680); 1 µM: 3%
DYRK1B (Homo sapiens, UniProt Q9Y463); 1 µM: -12%
CAMK2A (Homo sapiens, UniProt Q9UQM7); 1 µM: 3%
PDGFRB (Homo sapiens, UniProt P09619); 1 µM: 14%

Sample 4
Structure (SMILES): C[C@@H]1CN(c2ccc(-c3cc(C(=O)NCCOCCOCCOCCOCCNC(=O)Cn4cc(-c5[nH]cc(C(=O)N[C@@H](CC(N)=O)c6ccc(F)c(Cl)c6)c5-c5ccc(Cl)cc5F)cn4)ccc3F)cc2NC(=O)c2c[nH]c(=O)cc2C(F)(F)F)C[C@H](C)N1C
Read-out: thermal unfolding
Technique: differential scanning fluorimetry
Concentration: 5.5 µM
Reading: higher = more unfolded
Endpoint: SYPRO Orange fluorescence
WDR5: WD repeat-containing protein 5 (WDR5, Homo sapiens, UniProt P61964)
DCAF1: DDB1- and CUL4-associated factor 1 (DCAF1, Homo sapiens, UniProt Q9Y4B6)
UniProt Q9Y4B6, sequence (whole entry, looked up): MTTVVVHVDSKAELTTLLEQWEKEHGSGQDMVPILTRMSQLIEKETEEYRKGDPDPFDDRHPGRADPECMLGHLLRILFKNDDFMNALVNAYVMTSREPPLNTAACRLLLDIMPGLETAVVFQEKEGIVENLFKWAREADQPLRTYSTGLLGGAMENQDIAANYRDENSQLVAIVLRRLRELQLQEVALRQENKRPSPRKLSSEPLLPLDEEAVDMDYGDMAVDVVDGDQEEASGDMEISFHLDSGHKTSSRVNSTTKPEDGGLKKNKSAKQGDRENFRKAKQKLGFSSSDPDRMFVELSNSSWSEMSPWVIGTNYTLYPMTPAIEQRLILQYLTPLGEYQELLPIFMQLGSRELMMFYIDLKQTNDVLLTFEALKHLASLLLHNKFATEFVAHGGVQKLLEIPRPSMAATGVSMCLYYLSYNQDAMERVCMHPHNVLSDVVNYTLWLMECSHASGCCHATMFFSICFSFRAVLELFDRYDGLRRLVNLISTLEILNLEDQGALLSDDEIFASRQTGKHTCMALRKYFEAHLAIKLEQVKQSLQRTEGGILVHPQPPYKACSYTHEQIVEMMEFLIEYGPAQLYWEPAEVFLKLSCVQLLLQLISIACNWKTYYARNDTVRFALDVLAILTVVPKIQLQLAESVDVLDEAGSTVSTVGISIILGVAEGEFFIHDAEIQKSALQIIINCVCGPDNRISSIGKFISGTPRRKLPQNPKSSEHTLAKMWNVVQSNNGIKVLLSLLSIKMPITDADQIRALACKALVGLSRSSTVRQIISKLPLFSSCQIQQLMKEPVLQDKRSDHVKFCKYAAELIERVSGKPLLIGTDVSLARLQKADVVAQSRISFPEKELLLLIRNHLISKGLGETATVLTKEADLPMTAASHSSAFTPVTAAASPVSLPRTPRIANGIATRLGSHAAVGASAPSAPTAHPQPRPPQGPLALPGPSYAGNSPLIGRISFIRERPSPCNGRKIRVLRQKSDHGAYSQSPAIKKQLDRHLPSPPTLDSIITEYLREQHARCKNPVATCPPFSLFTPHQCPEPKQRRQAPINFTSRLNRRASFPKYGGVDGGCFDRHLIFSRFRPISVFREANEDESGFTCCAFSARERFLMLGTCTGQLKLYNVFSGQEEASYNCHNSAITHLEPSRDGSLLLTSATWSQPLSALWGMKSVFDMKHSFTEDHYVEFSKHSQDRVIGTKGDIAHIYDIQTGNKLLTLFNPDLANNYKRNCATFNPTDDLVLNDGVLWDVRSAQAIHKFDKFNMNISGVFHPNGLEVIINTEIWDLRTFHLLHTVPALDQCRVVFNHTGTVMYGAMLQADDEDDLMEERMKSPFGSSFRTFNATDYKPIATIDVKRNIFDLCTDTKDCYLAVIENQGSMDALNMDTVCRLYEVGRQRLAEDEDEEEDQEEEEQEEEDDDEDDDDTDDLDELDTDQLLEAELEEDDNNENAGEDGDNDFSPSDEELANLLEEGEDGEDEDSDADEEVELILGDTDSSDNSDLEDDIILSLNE
WDR5; 69.81 °C: 6780 a.u.
WDR5; 58.41 °C: 11500 a.u.
DCAF1; 76.41 °C: 47800 a.u.
DCAF1; 89.01 °C: 36100 a.u.
DCAF1; 79.61 °C: 44600 a.u.
WDR5; 39.8 °C: 14300 a.u.
DCAF1; 61.61 °C: 46000 a.u.

Sample 5
SMILES: CCNC(=O)COc1ccc(Br)c(C)c1
Target: Sodium-dependent neutral amino acid transporter B(0)AT1 (SLC6A19, Homo sapiens, UniProt Q695T7)
UniProt Q695T7, sequence (whole entry, looked up): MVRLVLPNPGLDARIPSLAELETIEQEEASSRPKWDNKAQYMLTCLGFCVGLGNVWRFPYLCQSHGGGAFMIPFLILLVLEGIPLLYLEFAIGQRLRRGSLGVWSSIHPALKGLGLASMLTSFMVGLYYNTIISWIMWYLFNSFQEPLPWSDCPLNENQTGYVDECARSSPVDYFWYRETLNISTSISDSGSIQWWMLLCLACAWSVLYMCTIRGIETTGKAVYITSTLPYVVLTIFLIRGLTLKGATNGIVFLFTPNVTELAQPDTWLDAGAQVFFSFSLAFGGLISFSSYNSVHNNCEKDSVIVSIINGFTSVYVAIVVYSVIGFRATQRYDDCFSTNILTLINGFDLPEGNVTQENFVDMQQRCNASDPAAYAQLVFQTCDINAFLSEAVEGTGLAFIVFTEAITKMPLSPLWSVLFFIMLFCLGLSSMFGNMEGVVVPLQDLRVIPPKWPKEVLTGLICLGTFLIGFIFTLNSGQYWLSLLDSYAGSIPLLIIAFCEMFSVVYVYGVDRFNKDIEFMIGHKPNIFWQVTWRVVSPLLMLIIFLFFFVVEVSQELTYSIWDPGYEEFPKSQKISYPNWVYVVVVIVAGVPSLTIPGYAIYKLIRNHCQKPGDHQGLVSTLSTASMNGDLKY
Mode: inhibitor
Cells: CHO-BC cells
Notes: unit not given
Relative to: uninhibited cells
Endpoint: remaining transport activity
FLIPR membrane potential; 0.003 µM: 0.887
L-[14C]leucine uptake; 0.03 µM, 6 min, 37 °C, together with: GPNA 3 mM, JPH203 3 µM: 1.03
FLIPR membrane potential; 0.03 µM: 0.744

Further values, each from its own experiment
Cc1nc(C)c(C=[N+]([O-])C(C)(C)C)nc1C — pSer473-Akt/total Akt (Western blot; MPTP mouse model; 90 mg/kg): 131 and 94.3 and 112 and 132

For quick reference, copied from above (sample 3):
MAPK8 (Homo sapiens, UniProt P45983); 1 µM: -10%
PIK3CD (Homo sapiens, UniProt O00329); 0.1 µM: 2%
JAK2 (Homo sapiens, UniProt O60674); 0.1 µM: -6%
TBK1 (Homo sapiens, UniProt Q9UHD2); 1 µM: 0%
EPHB2 (Homo sapiens, UniProt P29323); 0.1 µM: 13%
MAP2K2 (Homo sapiens, UniProt P36507); 0.1 µM: 2%
PAK3 (Homo sapiens, UniProt O75914); 1 µM: -4%
PRKCG (Homo sapiens, UniProt P05129); 1 µM: 0%
PAK6 (Homo sapiens, UniProt Q9NQU5); 0.1 µM: 6%
PLK3 (Homo sapiens, UniProt Q9H4B4); 1 µM: 13%
